Results collected from several papers.
± gives the spread as reported.
FURIN: Furin (FURIN, Homo sapiens, UniProt P09958)
TMEM97: Sigma intracellular receptor 2 (TMEM97, Homo sapiens, UniProt Q5BJF2)

With `CC(C)(C)OC(=O)[C@H](CCCCNC(=O)c1ccc(CNC(=N)N)c(I)c1)NC(=O)CCCCCCC(=O)NCCCC[C@H](NC(=O)N[C@@H](CCC(=O)O)C(=O)O)C(=O)O` the Ki was 0.00018 µM (Glutamate carboxypeptidase 2 (FOLH1, Homo sapiens, UniProt Q04609); inhibitor, Amplex Red fluorescence; LNCaP cell extract; added: NAAG).
`CC(C)(C)[C@H](NC(=O)[C@H](CCCNC(=N)N)NC(=O)[C@H](N)CCCNC(=N)N)C(=O)N[C@@H](CCCNC(=N)N)C(=O)NCc1ccc(C(=N)N)cc1` gave a Ki of 3.78e-05 µM (FURIN; enzyme activity, inhibitor, fluorescence).
With `c1ccc(CCN2CCCCC2)cc1` the Ki was over 10 µM (D(3) dopamine receptor (DRD3, Homo sapiens, UniProt P35462); binding; CHOp; added: [3H]YM-09151-2 0.21 nM).
`CC1(C)C[C@H]2[C@@H]3CC=C4C[C@@H](OC5CCCCO5)CC[C@]4(C)[C@H]3CC[C@]2(C)[C@H]1O` (stereo partly shown) has a Ki of 0.098 ± 0.015 µM (Oxysterol-binding protein 2 (OSBP2, Homo sapiens, UniProt Q969R2); [3H]25-hydroxycholesterol binding, inhibitor, competitive radioligand binding; HEK293T cell lysate; added: 20 nM [3H]25-hydroxycholesterol).
For `CCCCCCCC(=O)O[C@H]1/C(=C/C(=O)OC)C[C@H]2C[C@H]([C@@H](C)O)OC(=O)CCCC(=O)OCC(C)(C)[C@]1(O)O2`, the Ki was 0.24 µM (Protein kinase C alpha type (PRKCA, Homo sapiens, UniProt P17252); ligand displacement, radioligand).
With `Nc1ccc(S(=O)(=O)O)cc1` the Ki was 480 ± 55 µM (Ubiquitin-associated and SH3 domain-containing protein B, phosphatase domain (UBASH3B, Homo sapiens, UniProt Q8TF42); phosphatase activity, competitive inhibitor; added: pNPP).
With `O=C(Nc1ccc(Cl)c(Cl)c1)Nc1ccc(Cl)cc1O` the Ki was 0.06 ± 0.02 µM (Estrogen sulfotransferase (Ovis aries, UniProt A0ACI6NYW9); enzyme activity, inhibitor, radiochemical; sheep placental cytosol; added: estradiol 1 nM).
With `COc1cc(Cc2cnc(N)nc2N)c2c(c1OC)OC(C1CC1)C=C2` (stereo not shown) the Ki was 0.221 ± 0.006 µM (Dihydrofolate reductase (Staphylococcus aureus, UniProt C7C2U7); inhibitor).
With `Oc1ccc(Nc2nc(-c3ccc(Cl)cc3)cs2)cc1` the Ki was 33 µM (Sphingosine kinase 2 (SPHK2, Homo sapiens, UniProt Q9NRA0); enzyme activity, inhibitor, FlashPlate).
With `O=C(NCCCc1c[nH]cn1)NC(=O)c1ccccc1` the Ki was over 100 µM (Histamine H1 receptor (HRH1, Homo sapiens, UniProt P35367); ligand displacement, radioligand; cell membranes).
With `Fc1ccc2c(C3CCN(CCCCN4CCCCC4)CC3)noc2c1` the Ki was 0.0348 µM (5-hydroxytryptamine receptor 2A (HTR2A, Homo sapiens, UniProt P28223); ligand displacement, radioligand; cell membranes).
`CN(C(=O)/C=C/c1ccoc1)[C@@H]1CC[C@@]2(O)[C@H]3Cc4cccc5c4[C@@]2(CCN3CC2CC2)[C@H]1O5` gave a Ki of 0.00291 µM (Kappa-type opioid receptor (Oprk1, Mus musculus, UniProt P33534); ligand displacement, radioligand).
With `O=C(O)C(Cc1nnn[nH]1)[C@@H]1CCN[C@H]1C(=O)O` (relative stereo) the Ki was 0.25 µM (NMDA receptor, rat; binding; cortical synaptosomes; added: [3H]-CGP 39653).
With `CSC[C@H]1O[C@@H](n2cnc3c2N=CNC[C@H]3O)[C@H](O)[C@@H]1O` the Ki was 0.063 ± 0.004 µM (Fructose-1,6-bisphosphate aldolase/phosphatase (Helicobacter pylori, UniProt Q9ZMG8); enzyme activity, inhibitor; J99; pH 7.0, 25 °C, slow-onset second phase, added: 400 µM MTA).
`NC(CCc1ccccc1)P(=O)(O)CC(Cc1ccc(O)cc1)C(=O)O` (stereo not shown) gave a Ki of 0.054 ± 0.005 µM (Aminopeptidase N (Neisseria meningitidis, UniProt Q9JYV4); inhibitor; added: L-Arg-ACC 20 µM).
`CC(C)CN(C[C@@H](O)[C@H](Cc1ccccc1)NC(=O)O[C@H]1CO[C@H]2OCC[C@H]21)S(=O)(=O)c1ccc(C(=O)O)cc1` gave a Ki of 1.2e-05 µM (Gag-Pol polyprotein, protease (gag-pol, Human immunodeficiency virus type 1 group M subtype B, UniProt P04585); enzyme activity, inhibitor).
The Ki of `O=c1[nH]cnc2c1ncn2[C@@H]1O[C@H](CO)[C@@H](O)[C@H]1O` is reported as 146 ± 26 µM (Trichomonas vaginalis nucleoside transporter; inhibitor; trophozoites, Trichomonas vaginalis; low-affinity component, added: [3H]-guanosine).
`c1ccc(CCCCN2CCC(c3ccccc3)CC2)cc1` gave a Ki of 0.0008 µM (TMEM97; ligand displacement, radioligand).
`O=P(O)(O)Oc1cccc(OP(=O)(O)O)c1` has a Ki of 27 µM (Signal transducer and activator of transcription 5B, SH2 (STAT5B, Homo sapiens, UniProt P51692); ligand displacement, FP).
For `CC(C)C[C@H](N)C(=O)O`, the Ki was 48 ± 3 µM (2-isopropylmalate synthase (leuA, Neisseria meningitidis serogroup B, UniProt Q9JZG1); enzyme activity, noncompetitive inhibitor, DTP-coupled; pH 7.5, 25 °C, wild-type enzyme, added: α-ketoisovalerate varied, acetyl-CoA 300 µM).
For `L-cystine`, the Ki was 59 ± 10 µM (Cystine/glutamate transporter (SLC7A11, Homo sapiens, UniProt Q9UPY5); L-glutamate uptake, competitive inhibitor; SNB-19; Na-free).
`C=C[C@H]1CN2CC[C@H]1C[C@H]2[C@H](O)c1ccnc2ccccc12` gave a Ki of 196 µM (Sodium-dependent serotonin transporter (SLC6A4, Homo sapiens, UniProt P31645, S438T); transporter uptake, inhibitor, radiometric).
With `CC(C)[C@H](NC(=O)[C@H](CCCNC(=N)N)NC(=O)[C@@H](CCCNC(=N)N)NC(=O)[C@@H](CCCNC(=N)N)NC(=O)[C@@H](CCCNC(=N)N)NC(=O)[C@H](N)CCCNC(=N)N)C(=O)N[C@@H](CCCNC(=N)N)C(=O)NCc1ccc(C(=N)N)cc1` the Ki was 9.43e-05 µM (FURIN; enzyme activity, inhibitor, fluorescence).
With `N[C@@H](CC(=O)O)C(=O)O` the Ki was 18000 ± 1000 µM (Pyruvate carboxylase (pycA, Staphylococcus aureus, UniProt A0A0H3JRU9); pyruvate carboxylation, allosteric inhibitor, MDH-coupled).
`O=C(O)C[C@@H]1CC[C@H](NC(=O)Cc2cccs2)B(O)O1` has a Ki of 38 ± 4 µM (ampC (Burkholderia multivorans, UniProt A0A0H3KN52); enzyme activity, inhibitor).
`CCCN(CCC)CCc1ccc(OC)c(OCCc2ccccc2)c1` has a Ki of 0.0414 µM (TMEM97; ligand displacement, radioligand).
`CC(=O)N[C@@H](CC(C)C)C(=O)N[C@@H](CC(C)C)C(=O)N[C@@H](CC(C)C)C(=O)N[C@@H](CC(C)C)C(=O)N[C@@H](CCCNC(=N)N)C(=O)N[C@H](C(=O)N[C@@H](CCCNC(=N)N)C(=O)NCc1ccc(C(=N)N)cc1)C(C)(C)C` has a Ki of 7.86e-05 µM (FURIN; enzyme activity, inhibitor, fluorescence).
For `O=C(O)c1cccc(CS(=O)(=O)NCB(O)O)c1`, the Ki was 0.16 µM (ADC-7 beta-lactamase, Acinetobacter baumannii; inhibitor; 5 min preincubation, pH 7.4, added: nitrocefin 60 µM).

Repeated from above:
For `CCCCCCCC(=O)O[C@H]1/C(=C/C(=O)OC)C[C@H]2C[C@H]([C@@H](C)O)OC(=O)CCCC(=O)OCC(C)(C)[C@]1(O)O2`, the Ki was 0.24 µM (Protein kinase C alpha type (PRKCA, Homo sapiens, UniProt P17252); ligand displacement, radioligand).
With `O=C(Nc1ccc(Cl)c(Cl)c1)Nc1ccc(Cl)cc1O` the Ki was 0.06 ± 0.02 µM (Estrogen sulfotransferase (Ovis aries, UniProt A0ACI6NYW9); enzyme activity, inhibitor, radiochemical; sheep placental cytosol; added: estradiol 1 nM).
